Assay results pooled from the literature.
A part holds a random share of what one study measured.

Sample 1
Target: Histone acetyltransferase KAT6A, winged helix 1, GST fusion (KAT6A, Homo sapiens, UniProt Q92794, residues 1-85)
Technique: protein binding microarray
Form: double-stranded DNA, one strand shown
Matrix: in vitro
Tested at: not given
Setting: 8-mer, flanks averaged, mean of 2 arrays, mostly near background
Baseline: not given
Direction: higher = stronger binding
Residues (chain): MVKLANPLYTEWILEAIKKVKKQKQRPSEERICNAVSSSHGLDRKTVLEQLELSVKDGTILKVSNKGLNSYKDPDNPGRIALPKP
| Strand | E-score |
| --- | --- |
| CATGATCC | 0.0392 |
| AAGGTTCA | -0.183 |
| CAGCATAG | -0.136 |
| CAACACCC | -0.173 |
| CAGGTATA | -0.00214 |
| GAATCTAA | -0.0242 |
| CGGAGTTA | 0.129 |
| CAACTAAG | -0.181 |
| ACTCATCC | -0.145 |
| ACTTTTTG | -0.19 |
| AGTACCCG | 0.121 |
| AAAACTCT | -0.0542 |
| CAATTGAG | 0.0274 |
| AGCGCGTC | 0.377 |
| AATTGGTG | -0.256 |
| AAAACGTG | -0.0803 |
| AGCACAAA | -0.213 |
| GGCAATAC | 0.209 |
| AGCGCTCC | 0.332 |
| CGTCTTGA | -0.138 |

Sample 2
Target: Sal-like protein 4, full length isoform A (SALL4, Homo sapiens, UniProt Q9UJQ4, residues 1-1053)
UniProt Q9UJQ4, sequence (whole entry, looked up): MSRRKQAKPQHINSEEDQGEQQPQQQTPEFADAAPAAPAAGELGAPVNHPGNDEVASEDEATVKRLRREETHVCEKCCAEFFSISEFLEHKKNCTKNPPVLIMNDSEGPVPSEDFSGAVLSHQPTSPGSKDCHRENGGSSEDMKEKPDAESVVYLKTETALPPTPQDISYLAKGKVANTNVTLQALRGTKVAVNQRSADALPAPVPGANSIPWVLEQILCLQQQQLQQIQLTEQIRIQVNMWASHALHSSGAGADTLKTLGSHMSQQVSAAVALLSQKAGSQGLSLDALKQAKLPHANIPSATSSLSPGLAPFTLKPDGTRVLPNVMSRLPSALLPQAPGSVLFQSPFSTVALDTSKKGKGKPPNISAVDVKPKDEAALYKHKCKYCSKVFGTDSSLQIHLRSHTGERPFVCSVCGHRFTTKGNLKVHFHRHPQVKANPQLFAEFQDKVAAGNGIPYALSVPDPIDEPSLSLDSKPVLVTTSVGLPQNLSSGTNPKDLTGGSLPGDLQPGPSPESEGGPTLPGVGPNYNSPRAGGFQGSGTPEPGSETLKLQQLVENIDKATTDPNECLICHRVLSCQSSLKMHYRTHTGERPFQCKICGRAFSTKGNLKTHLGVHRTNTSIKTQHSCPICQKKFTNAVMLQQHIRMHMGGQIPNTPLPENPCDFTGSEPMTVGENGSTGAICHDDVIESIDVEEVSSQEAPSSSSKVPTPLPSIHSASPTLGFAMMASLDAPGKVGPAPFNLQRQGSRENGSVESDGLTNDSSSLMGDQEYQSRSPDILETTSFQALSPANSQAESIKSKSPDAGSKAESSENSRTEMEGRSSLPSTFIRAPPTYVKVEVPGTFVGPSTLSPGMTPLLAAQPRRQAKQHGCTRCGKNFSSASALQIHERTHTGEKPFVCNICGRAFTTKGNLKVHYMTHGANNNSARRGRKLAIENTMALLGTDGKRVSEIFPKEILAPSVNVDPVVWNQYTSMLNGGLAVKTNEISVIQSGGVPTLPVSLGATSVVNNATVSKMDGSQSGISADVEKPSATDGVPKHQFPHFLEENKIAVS
Technique: universal PBM
Form: double-stranded DNA, one strand shown
Matrix: in vitro
Tested at: 600 nM
Setting: 8-mer, flanks averaged, mean of replicates
Direction: higher = stronger binding
| Strand | E-score |
| --- | --- |
| ACGGGAAG | 0.0615 |
| TCTTGGAA | 0.149 |
| ACTCTGCA | -0.0262 |
| CGTAACAA | 0.226 |
| CAGCATAC | 0.0516 |
| ACAATTCA | 0.169 |
| CCCGGACC | -0.352 |
| TAACGGAA | 0.0691 |
| CGGTACAA | 0.109 |
| AGCTTCCC | -0.216 |
| CCCTGTCG | -0.298 |
| GGATTGAC | -0.0275 |
| AAAGAGTA | 0.202 |
| AGAGCAGC | -0.0663 |
| GCCGAGCA | -0.379 |
| CTCCGACA | -0.0576 |
| CTACCGCA | -0.00628 |
| CCTCTGCA | -0.0937 |
| AATGGAGA | 0.0115 |
| AACAACGC | 0.107 |
| ATGTCGCC | -0.0284 |
| CACTTCCG | -0.121 |
| AGCGTATC | -0.105 |
| ACCGCCAT | -0.142 |
| TGTATCAA | 0.245 |

Sample 3
Target: Ras GTPase-activating protein-binding protein 1, C-terminal RGG region (G3BP1, Homo sapiens, UniProt Q13283)
UniProt Q13283, sequence (whole entry, looked up): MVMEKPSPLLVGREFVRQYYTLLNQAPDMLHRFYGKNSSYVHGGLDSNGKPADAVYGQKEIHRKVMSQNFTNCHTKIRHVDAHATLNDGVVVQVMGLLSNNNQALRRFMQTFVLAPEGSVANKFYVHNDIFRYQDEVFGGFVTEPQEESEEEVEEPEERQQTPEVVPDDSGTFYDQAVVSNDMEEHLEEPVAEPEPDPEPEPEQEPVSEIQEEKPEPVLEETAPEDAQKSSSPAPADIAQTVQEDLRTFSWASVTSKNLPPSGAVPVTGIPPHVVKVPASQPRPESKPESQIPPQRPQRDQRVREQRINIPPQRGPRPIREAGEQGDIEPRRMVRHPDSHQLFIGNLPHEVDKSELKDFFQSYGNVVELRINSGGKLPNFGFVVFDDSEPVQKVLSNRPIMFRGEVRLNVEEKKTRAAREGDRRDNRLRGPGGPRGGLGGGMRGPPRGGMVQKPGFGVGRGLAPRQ
Technique: RNA Bind-n-Seq
Form: RNA
Matrix: in vitro
Tested at: 1 µM
Setting: whole 134-nt RNA, ends assumed
Together with: 150 mM KCl
Baseline: input library
Direction: higher = stronger binding
| Strand | log2 enrichment |
| --- | --- |
| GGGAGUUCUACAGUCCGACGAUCUACUAUGAAGCCUUGUGCAAAUCCCUCGACUGGCAGAUAGACGUGGACCUACUCAAUAAAAUGAAGAAGGCAAAUGAAGAUGAGUUGAAGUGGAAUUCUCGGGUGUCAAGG | -1.54 |
| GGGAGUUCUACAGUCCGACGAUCUGGCCCUGGUGGCAUGCGGGGAGGAAGAGGUGCCCUCAUGGAUCGUGGUGGUCCCGGUGGAAUGUUCAGAGGUGGCCGUGGUGGAGACAGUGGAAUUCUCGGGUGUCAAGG | 1.6 |
| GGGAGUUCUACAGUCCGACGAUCUCAAGUCCUGUGCUACACAUCGUAUGUACCGAAUCGGUUGGGGUUGGGGUUGGGAAAGUAUUAUGUUACGCCGUUCGGAUCUGCACUUCCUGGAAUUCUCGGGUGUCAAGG | 1.51 |
| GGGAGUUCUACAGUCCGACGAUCUGGCCGUGGUGGCAUGCGGGGAGGAAGAGGUGGCCUCAUGGAUCGUGGUGGUCCCGGUGGAAUGUUCAGAGGUGGCCGUGGUGGAGACAGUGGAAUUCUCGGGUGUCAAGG | 2.35 |
| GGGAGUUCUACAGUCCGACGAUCUGGGAGGUGGAUUUUGUUUAUUUUUUUAGCUCAUUUCCAGGGGUGGGAAUUUUUUUUUAAUGUGUGUCAUGAAUAAAGUUGUUUUUGAAAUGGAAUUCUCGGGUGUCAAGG | 3.3 |
| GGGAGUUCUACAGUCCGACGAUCUGGGAGGUGGAUUUUGUUUAUUUUUUUAGCUCAUUUCCAGGGGUGGGAAUUUUUUUUUAAUAUUUGUCAUGAAUAAAGUUGUUUUUGAAAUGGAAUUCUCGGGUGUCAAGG | 2.62 |
| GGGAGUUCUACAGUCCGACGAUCCAAGUCCUGUGCUACACAUCGUAUGUACCGAAUCGGUUUGGAAAGGUUUUUUUGGAAAGUAUUAUGUUACGCCGUUCGGAUCUGCACUUCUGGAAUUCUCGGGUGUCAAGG | -1.66 |
| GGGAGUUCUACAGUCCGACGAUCGCAUGAAGUAAAAACAAAUGGAAAUGCUUCGGAUAGUGGCAGGGGUGGGGGUUGCUAAGGAAAGGGUGGGAUGGGAGUGGGUAAAGAGUUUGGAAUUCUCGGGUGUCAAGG | 1.48 |
| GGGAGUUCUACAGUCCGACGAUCUGGGCUGGAUGGCUCAGUUCCCCCAGACCUGGACUGGAAGGGCCAGCCACCUGCACCUCCUAAAAAGGGACUGCUGCAGAGACUCUUCAGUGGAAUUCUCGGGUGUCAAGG | -1.21 |

Sample 4
Target: Hepatocyte nuclear factor 3-alpha (Foxa1, Mus musculus, UniProt P35582, residues 1-468, full length assumed)
UniProt P35582, sequence (whole entry, looked up): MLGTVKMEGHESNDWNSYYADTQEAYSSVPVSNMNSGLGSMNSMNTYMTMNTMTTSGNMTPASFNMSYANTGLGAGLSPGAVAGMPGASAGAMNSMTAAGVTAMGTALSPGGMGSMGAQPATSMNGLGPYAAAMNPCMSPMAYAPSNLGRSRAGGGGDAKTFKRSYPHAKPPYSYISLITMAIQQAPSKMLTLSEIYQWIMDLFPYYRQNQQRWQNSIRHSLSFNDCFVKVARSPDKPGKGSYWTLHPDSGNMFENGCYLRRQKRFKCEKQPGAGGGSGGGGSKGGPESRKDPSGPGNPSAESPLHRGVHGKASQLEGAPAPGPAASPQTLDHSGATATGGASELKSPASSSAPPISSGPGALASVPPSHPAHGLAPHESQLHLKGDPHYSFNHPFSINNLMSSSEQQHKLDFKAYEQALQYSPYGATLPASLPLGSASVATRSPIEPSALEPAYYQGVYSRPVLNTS
Technique: EMSA with sequencing
Form: double-stranded DNA, one strand shown
Matrix: in vitro
Tested at: 10 and 20 nM
Setting: whole designed probe, mean of two concentrations, ends assumed
Baseline: negative control set to 0
Direction: higher = stronger binding
| Strand | normalised bound fraction |
| --- | --- |
| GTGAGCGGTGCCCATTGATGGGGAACTCATTCTACCTGAGGAGTTGATATCTGACAGGTCTACATCTGAATTATTGTAAATGTATGTATTTTCATATGAGCATGCAAAGACATTCAAAGTAAACAAAAATAAATGCTAATTAATTAAATTATAATGCAAAAGCAGGGCTTCCTCACCTACAACTTTGTTAAATTTAGATCTCTTTGGAAAACACATTGTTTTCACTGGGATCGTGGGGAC | 0.472 ratio |
| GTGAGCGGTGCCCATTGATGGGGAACGGGTCCCGGGCGGCGGCAGGAATGCAGGAATGCGCACAGGCTGTGGGCGGCCAGGAGGGAGTCCCGGCGCCGGCGGAAGTGTGCCCCAGTCTTTGTGTACCCTGTCCAACACCTCCCCCCGCCAGCGCGGAAGGCCGGGCTACCTGCGCGCCTGGCAGCGCCTGGCAGCCGGCTGGGTGGGGCGCAGGGGAGCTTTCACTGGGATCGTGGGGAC | -0.00165 ratio |
| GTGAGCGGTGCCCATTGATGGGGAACATCTTCCCCCTCTTCCTTGCCCCACCAGCTCACCTACGGGGGTTATTTGCACAAAGGAAAATAAATAAAGCCGGCATTCGTTAACCCTCTTCTGGCGCAAACTGCTGTTTGCTCTGGATGAATCATGGTCCTTTGGCGACGCCAGGCTCCGGGAGAGCAAAGCACCGTGTCAGGGCCATGATCCGGGGTGGCCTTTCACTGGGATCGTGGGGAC | 0.369 ratio |
| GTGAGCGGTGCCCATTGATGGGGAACGCTCTGGGCAGTCACCCAGGTACCACAAAATCCCTATGGGTGTGCATCTCCTTTGTTACCCATGTGTATACTCCCTCCCTGACGTCAAAGCCATGTTTGCTCAGCTTGATGAAAATGTGTTTCTTGAAAGCCACATTCTTTTCCTTTTCTGAGCCAGTGAGGTTTCTGCAGAGCTCATGGTGCTGATGTTTCCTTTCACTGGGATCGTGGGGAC | 0.165 ratio |
| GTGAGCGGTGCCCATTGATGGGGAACTTATTATCTGATTAATTTCCAAATGAATACCAAAAAAAAACATTTAGATAGGCTGTTGTTTGGTCCCAAGTATGTATTTCCATTAAGAGCTTTGTTTACTTTGTTTCTCTTTATACACCATGAACCAACTTCAAAACTTTCATTCATACTGTATCACTCGCTAAGTCACTGTATTTTCAAAAAAGAAATAAGGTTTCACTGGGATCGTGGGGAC | 0.482 ratio |

Sample 5
Target: RNA binding protein fox-1 homolog 2, RRM domain, GST-SBP tag (RBFOX2, Homo sapiens, UniProt O43251-10, residues 100-194)
Technique: RNA Bind-n-Seq
Form: RNA
Matrix: in vitro
Tested at: 365 nM
Setting: natural RNA segment, single round, ends assumed
Baseline: no-protein control
Direction: higher = stronger binding
Residues (chain): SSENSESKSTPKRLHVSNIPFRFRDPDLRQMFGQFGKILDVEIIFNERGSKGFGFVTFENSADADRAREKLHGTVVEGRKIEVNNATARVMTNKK
| Strand | RBNS enrichment (R) |
| --- | --- |
| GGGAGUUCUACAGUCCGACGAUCUAAAUUCUUCCUAAGUUCUCUGCUCAUUAAUCUUCAGACCACAGUUACUAAAACUGUGGCUUAGUAGUAAGCUGAGGGCUAAAUGAGAGACUGCUAUUCUAAGAGCAUCAUGGAAUUCUCGGGUGCCAA | 0.319 |
| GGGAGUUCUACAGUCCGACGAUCCACCCCGGCUCCCUGGCCCUAUCCACACCUCCACCCCCACCCCAGGAUCGCCAUCUUUAGGGGAGGCCUGGGAGGGGGUGUUAGGUGUUUUAGGGCCACCGAGCUCAAACUGGAAUUCUCGGGUGCCAA | 0.264 |
| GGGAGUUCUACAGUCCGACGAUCGAUCUACCAUUAGGGUGUGAGAGGUAGCCAGGAACCUUUGGUUUUAUAAAUGGUGACGAAAUGACAUCCUAAACAGAGUCUUUCUCCUGUAAUUUAGCUGAGAGAAUUCUUGGAAUUCUCGGGUGCCAA | 0.172 |
| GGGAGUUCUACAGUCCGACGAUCGGCUGCGGGCCAGUGCCUGCGCAUGUUUGUGCCUCUCCCCUCUCCUUGGGCAGGCCCUGGGUAGGAAGCUGGGCUCCUCCUCAAAGGGGAAGAGAGAGAUAGGGUAUAGGUGGAAUUCUCGGGUGCCAA | 0.731 |
| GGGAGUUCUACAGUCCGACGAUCGGGGUUAAUCAACCCCGCGUGUUUCUGUUUUAUUGAAAAAGCAGACAUUUUUUUUUAAAUGGUCACAUUUCGUGCUUCUCGGAUUUCUGAGGAAAUAUUUUGUAUUGUAUUGGAAUUCUCGGGUGCCAA | 0.591 |
| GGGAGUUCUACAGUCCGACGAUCGGUACUGAAAAUAACAUGAUGCUUGCUUGGAGUAUGAUGCUAUGUCACCCAAGUCACAGGAUGAUUAUUAAAAGAACACACACACCAAAAAACAUACUUAUCCUAAAGAGUGGAAUUCUCGGGUGCCAA | 0.566 |
| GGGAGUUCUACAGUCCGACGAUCACACACUCGAUUAAAAAUGUUAAGCUAUCUGAAAAAUAAAAUGUGCAAGUCUUCAGGAUGGCACAAAACAAAGGUUAAUGCUUCUUGGGGCACAUUUCUUAGAGGGCUUGUGGAAUUCUCGGGUGCCAA | 0.611 |
| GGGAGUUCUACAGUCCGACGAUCACAGAUGAUGCAAAAAAAACUAAGAUACACUGGAUUGUACUGGAUGAGUCUGAAAUUAGUGUUAAAGAAGUGUGGUGCCUGAUGUUAUAACAACACCUCAUUCUUAACUGUGGAAUUCUCGGGUGCCAA | 0.533 |

A few entries again (sample 1):
| Strand | E-score |
| --- | --- |
| ACTCATCC | -0.145 |
| GAATCTAA | -0.0242 |
| AGCACAAA | -0.213 |
| GGCAATAC | 0.209 |
| AAAACTCT | -0.0542 |
| CAACACCC | -0.173 |
